Results from different studies.
Protocols differ between the studies behind these lines. ± marks the error that the study gave.
Organism: Salmonella typhimurium

SMILES = O=NN1CCN(C2CCCC2)CC1; test = mutagenicity, Ames plate incorporation; test system = TA1535; setting = 1500 µg/plate, 3 d, without S9, methanol; endpoint = revertant colonies per plate; result = 16 ± 7
SMILES = O=[N+]([O-])c1ccc(N2CCN(CCC(O)c3ccc(F)cc3)CC2)c(C(F)(F)F)c1 (stereo not drawn); test = genotoxicity, SOS/umu test; test system = TA1535/pSK1002; setting = 0.25 mg/mL, 4 h, without S9, lower range; endpoint = induction factor; result = 0.1
SMILES = Cc1cc(C(=O)NC(C)(C)COc2cccc3c2C(N)=NS(=O)(=O)N3)cc(C)n1; test = Ames test, initial; test system = TA100; setting = 5000 µg/plate, with: rat liver S9; how to read = reference: solvent control; endpoint = revertant ratio; result = 1.3
SMILES = O=[N+]([O-])c1ccc(N2CCC(NCCC(O)c3ccc(F)c4ccccc34)CC2)c(C(F)(F)F)c1 (stereo not drawn); test = SOS response, SOS/umu test; test system = TA1535/pSK1002, TGA medium; setting = 1.53e-05 mg/mL, 4 h, with: 10% rat liver S9; how to read = reference: untreated; endpoint = induction factor; result = 1
SMILES = CC(=O)N1CCC(C(=O)N2CCN3C(=O)c4cc(-c5ccccc5)ccc4NC(=O)C3C2)CC1 (stereo not drawn); test system = TA1537; setting = 1.58 µg/plate, with: rat liver S9; how to read = reference: vehicle; endpoint = fold increase in revertants; result = 2.3
SMILES = CC(C)N(C)N=O; test = mutagenicity, Ames plate incorporation; test system = TA98; setting = 2500 µg/plate, 3 d, without S9, methanol; endpoint = revertant colonies per plate; result = 22.7 ± 2
SMILES = COc1cccc(-c2n[nH]c(SCc3ccccn3)n2)c1OC; test = Ames test, plate incorporation; test system = TA98; setting = 1.0 mg/plate, without S9; endpoint = revertant colonies per plate; result = 21
SMILES = O=[N+]([O-])c1ccc(NC2CCNCC2)c(C(F)(F)F)c1; test = genotoxicity, SOS/umu test; test system = TA1535/pSK1002; setting = 0.016 mg/mL, 4 h, without S9, full range; endpoint = induction factor; result = 0.8
SMILES = CNC(=O)c1c(N(C)N=O)ncn1C; test = mutagenicity, Ames plate incorporation; test system = TA98; setting = 150 µg/plate, without S9, methanol; endpoint = revertant colonies per plate; result = 19.3 ± 4

A few entries again:
SMILES = CC(C)N(C)N=O; test = mutagenicity, Ames plate incorporation; test system = TA98; setting = 2500 µg/plate, 3 d, without S9, methanol; endpoint = revertant colonies per plate; result = 22.7 ± 2
